Measured values of several laboratories.
Protocols differ between the studies behind these lines.
Target: Serine/threonine-protein kinase tousled-like 1 (TLK1, Homo sapiens, UniProt Q9UKI8)

SMILES = Nc1ncc(-c2cc(-c3cnn(CC(F)(F)F)c3)ncc2F)nc1C(=O)NC1CNCC(F)C1 (stereo not shown); test = enzyme activity; conditions = 1 µM; scale = reference: DMSO control; measurement = remaining activity; result = 93.5%
SMILES = CCN1CCN(Cc2ccc(NC(=O)c3ccc(C)c(NC(=O)c4cncc(-c5cnn(C)c5)c4)c3)cc2C(F)(F)F)CC1; test = binding, competition with immobilised ligand; conditions = 1 µM; measurement = remaining binding; result = 82%
SMILES = CS(=O)(=O)Nc1cccc(-c2csc3cnc(Nc4ccc(N5CCN(CCCCCOc6cccc7c6C(=O)N(C6CCC(=O)NC6=O)C7=O)CC5)cc4)nc23)c1 (stereo not shown); test = probe labelling, inhibitor, KiNativ chemoproteomics; system = MOLT-4; conditions = 1 µM; measurement = inhibition; result = 18.1%
SMILES = CN1CC[C@@H](COc2cnc(C#N)cc2-c2ccn3nc(NC(=O)C4CC4)cc3c2)C1; test = enzyme activity, inhibitor; conditions = 1 µM; measurement = inhibition; result = 9%
SMILES = CN1CCN(Cc2ccc(-c3ccc(CO[C@H]4CCC[C@@H]4NC(=O)c4cc(-c5cnn(C)c5)cnc4N)cc3)cc2)CC1; test = enzyme activity, inhibitor; conditions = 0.1 µM; measurement = inhibition; result = 0%
SMILES = Nc1ncc2c(n1)-c1c([nH]c3ccc(C4=CCOCC4)cc13)CCC2; test = binding, competition with immobilised ligand; conditions = 1 µM; measurement = remaining binding; result = 100%
SMILES = NC(=O)[C@@H](O)C[C@H]1CCc2sc3ncnc(O[C@H]4CC[C@H](N5CCOCC5)CC4)c3c21; test = enzyme activity, inhibitor; conditions = 10 µM; measurement = inhibition; result = 0%
SMILES = Cc1ccc(C(=O)Nc2ccc(CN3CCN(C)CC3)c(C(F)(F)F)c2)cc1C#Cc1cnc2cccnn12; test = target engagement, NanoBRET; system = human cells; measurement = Hill slope; result = 0.0581
SMILES = C=CC(=O)N1Cc2nc(-c3cc(-c4cc(Cl)cnc4Cl)c(F)cc3F)n(-c3ccncn3)c2C1; test = cell-free assay, inhibitor; conditions = 1 µM; measurement = inhibition; result = -6.1%
SMILES = C=CC(=O)N1CCc2ccc(-n3c(=O)ccc4cnc5ccc(-c6cnn(C)c6)cc5c43)cc21; test = KINOMEscan; conditions = 1 µM; scale = reference: DMSO control; measurement = remaining binding; result = 77%
SMILES = CNC1C[S+]2CC[S+]3CC[S+](C1)[Ru-4]321([N]=C=S)[n]2c3ccc(OC)cc3c3c4c(c5cc(F)c[n+]1c5c32)C(=O)NC4=O (stereo not shown); test = KinomeScan; conditions = 0.1 µM; scale = reference: untreated; measurement = remaining binding; result = 88%
SMILES = COc1cc(Nc2nc(C)cc(-c3cnn4nc(OC)ccc34)n2)cc(C(F)(F)F)c1; test = binding, competition with immobilised ligand; conditions = 1 µM; measurement = remaining binding; result = 100%
SMILES = COc1c(Cl)cccc1Nc1c(-c2ccncc2C#C[C@@]2(C)CCCN2C(=O)/C=C/CN(C)C)[nH]c2c1C(=O)NCC2; test = cell-free assay, competition with immobilised ligand; conditions = 3 µM; measurement = remaining binding; result = 59%

A few entries again:
SMILES = CN1CCN(Cc2ccc(-c3ccc(CO[C@H]4CCC[C@@H]4NC(=O)c4cc(-c5cnn(C)c5)cnc4N)cc3)cc2)CC1; test = enzyme activity, inhibitor; conditions = 0.1 µM; measurement = inhibition; result = 0%
